Measurements pooled from the literature.
Compare with care: the assays were run in different laboratories. Numbers after ± are the reported error.

SMILES = CCNc1cc2[o+]c3cc(NCC)c(C)cc3c(-c3ccccc3C(=O)OCCOCC[18F])c2cc1C; test system = rat, thyroid/trachea; setting = 15 min; tissue uptake = 1.23 ± 0.47 %ID/g
SMILES = C=Cc1cc(O)cc2nc(-c3ccc(O)c([76Br])c3)oc12; test system = female C57BL/6 mouse, lung; setting = 1 h, high dose; tissue uptake = 0.27 ± 0.09 %ID/g
SMILES = N=C(N)NCc1ccc(C(=O)NCCCC[C@H](NC(=O)N[C@@H](CCC(=O)O)C(=O)O)C(=O)O)cc1[131I]; test system = SCID mouse, PC-3 xenografts, lungs; setting = 14 h; tissue uptake = 0.09 ± 0.03 %ID/g
SMILES = COc1cc2ccnc(Cc3ccc(O[11CH3])c(OC)c3)c2cc1OC; test system = Sprague-Dawley rats, lung; setting = intravenous, 0.08333 h; tissue uptake = 0.323 ± 0.048 %ID/g
SMILES = O=C(c1ccc(F)cc1)C1CCN(C2Cc3c(cccc3OCC[18F])CC2O)CC1 (single isomer, unassigned; (-)); test system = Sprague-Dawley rat, male, lung; setting = intravenous, dose not given, 120 min; tissue uptake = 0.551 ± 0.07 %ID/g
SMILES = CN[C@](C)(C[18F])C(=O)O; test system = SCID mouse SK-OV-3 xenograft, pancreas; setting = 15 min post injection; tissue uptake = 42 ± 2.8 %ID/g
SMILES = COc1ccc(C)cc1NC(=O)OC1CC2CCCC(C1)N2Cc1ccc(CC[18F])cc1 (centres unmarked); test system = BALB/c mice, EMT6 tumour, heart; setting = 2 h; tissue uptake = 1.22 ± 0.18 %ID/g
SMILES = CCCC[C@H](NC(=O)CN1CCC(NC(=O)CN2CCC(NC(=O)CN3CCN(CC(=O)O)CCN(CC(=O)O)CCN(CC(=O)O)CC3)CC2)CC1)C(=O)N[C@H]1CC(=O)NCCCC[C@@H](C(N)=O)NC(=O)[C@H](Cc2c[nH]c3ccccc23)NC(=O)[C@H](CCCNC(=N)N)NC(=O)[C@@H](Cc2ccccc2)NC(=O)[C@H](Cc2c[nH]cn2)NC1=O [gallium-68 labelled]; test system = C57BL/6J mice male B16-F10 tumour, fat; setting = 1 h post injection, unblocked; tissue uptake = 0.1 %ID/g

Some of these lines once more:
SMILES = COc1ccc(C)cc1NC(=O)OC1CC2CCCC(C1)N2Cc1ccc(CC[18F])cc1 (centres unmarked); test system = BALB/c mice, EMT6 tumour, heart; setting = 2 h; tissue uptake = 1.22 ± 0.18 %ID/g
